Experimental data collected from several papers.
Each numbered part is a random draw from the data of one study; scales do not carry over between parts.

Set 1
Target: Interferon regulatory factor 5, full length, phosphomimetic (IRF5, Homo sapiens, UniProt Q13568-2, residues 1-514, K96S/S451D/S453D/S456D/S462D)
Technique: protein-binding microarray
Molecule type: double-stranded DNA, one strand shown
Matrix: in vitro
Concentration: 250 nM
Setting: 60-bp whole probe
Together with: salmon DNA 0.4 mg/ml
Reference: random background probes
Reading: higher = stronger binding
Constant ends, left off below: GCCTAGCAC … GTCTTGATTCGCTTGACGCTGCTG
| Strand | log fluorescence |
| --- | --- |
| TCACCTCTCAACCATCCTACTGTGCTA | 0.0227 z-score |
| GACGGACTGCGACTGGGGACGTGCTAG | -0.668 z-score |
| GACGGTATCGACTACCGGGACGTGCTA | 2.58 z-score |
| GACGATTTCGGGTATCGAGCCGTGCTA | 4.27 z-score |
| TTAGGTATCCTTATCCCTTAGTGCTAG | 0.101 z-score |
| TTAGCTATCGGTATCGGTTAGTGCTAG | 9.95 z-score |

Set 2
Target: RING finger protein unkempt homolog, zinc fingers 1-6, GST-SBP tag (UNK, Homo sapiens, UniProt Q9C0B0, residues 30-357)
UniProt Q9C0B0, sequence (30-357, looked up): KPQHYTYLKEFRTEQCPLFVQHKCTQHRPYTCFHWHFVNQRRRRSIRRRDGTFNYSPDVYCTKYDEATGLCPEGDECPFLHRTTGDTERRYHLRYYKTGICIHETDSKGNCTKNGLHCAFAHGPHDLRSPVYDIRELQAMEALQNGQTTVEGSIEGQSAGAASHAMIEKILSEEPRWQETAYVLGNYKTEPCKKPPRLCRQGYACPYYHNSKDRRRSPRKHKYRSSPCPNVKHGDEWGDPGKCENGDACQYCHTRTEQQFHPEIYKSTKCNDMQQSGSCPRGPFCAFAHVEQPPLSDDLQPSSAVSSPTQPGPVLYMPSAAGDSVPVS
Technique: RNA Bind-n-Seq
Molecule type: RNA
Matrix: in vitro
Concentration: not given
Setting: RNA with constant flanks, human and mouse sites, ends assumed
Reference: input RNA pool
Reading: higher = stronger binding
| Strand | bound/input enrichment |
| --- | --- |
| GGGAGUUCUACAGUCCGACGAUCGAACCGAUCAGUGUGAGUAUAUACACUUCUGAUAACUACUCUGAAGAAGUGGGUUCUGGAGACUAUGACUCCAACAAGGAACCCUGCUUCCGGGAUGAAAACGUCCAUUUCAAUAGGAUCCAACAGAGGAUUGAGCAUCA | 0.131 ratio |
| GGGAGUUCUACAGUCCGACGAUCUACAGAGGAAGGGGUAGAGGGUAUUAUCAAGGAGGAGGAGGGAGAUACCAUCGAGGUGGCUAUAGACCUGUCUGGAAUAGAAGGCACUCUAGGAGUCCUAGACGAGGUCGGUCACGGUCCCAACAGAGGAUUGAGCAUCA | 0.347 ratio |
| GGGAGUUCUACAGUCCGACGAUCCGAUAAUACUUGACCUCUGUGACCAACUAUUGGAUUGAGAAACUGACAAGCCUUGGUUGAUAGCAAGAACCCUUUCAGUUUACAUUGUGACAUUCUGUUGUAAAAAUCAACUAAAAUGCUCAACAGAGGAUUGAGCAUCA | 0.177 ratio |

Set 3
Target: Centromere-binding protein 1, full length, N-terminal tag (CBF1, Saccharomyces cerevisiae, UniProt P17106, residues 1-351)
UniProt P17106, sequence (whole entry, looked up): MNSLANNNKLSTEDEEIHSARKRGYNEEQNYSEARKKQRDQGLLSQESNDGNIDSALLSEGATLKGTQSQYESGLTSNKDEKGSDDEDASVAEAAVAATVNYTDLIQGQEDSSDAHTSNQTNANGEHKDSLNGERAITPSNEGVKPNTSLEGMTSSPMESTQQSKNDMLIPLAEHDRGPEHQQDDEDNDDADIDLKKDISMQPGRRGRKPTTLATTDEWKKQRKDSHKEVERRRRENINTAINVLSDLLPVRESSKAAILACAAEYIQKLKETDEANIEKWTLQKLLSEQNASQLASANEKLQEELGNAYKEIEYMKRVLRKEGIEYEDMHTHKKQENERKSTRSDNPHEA
Technique: protein-binding microarray
Molecule type: double-stranded DNA, one strand shown
Matrix: in vitro
Concentration: 0.8 µM
Setting: whole 60-bp probe, no competitor
Reading: higher = stronger binding
| Strand | fluorescence intensity |
| --- | --- |
| CTAAATGCACATTTGCACGTTCTAATAATGAAGTTCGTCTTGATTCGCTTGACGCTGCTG | 658 a.u. |
| GAACATTTTATCCATTATCTGATGCATTTCCCTTAGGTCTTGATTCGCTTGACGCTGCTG | 513 a.u. |
| CTAAGACGTTGACACTAGGTGGTGGTTTATGGGTTCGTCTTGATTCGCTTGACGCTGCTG | 524 a.u. |
| CTAGTCGTTGCGGGCGTGGTGCTGATGTTCTTCTTCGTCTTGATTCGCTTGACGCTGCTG | 549 a.u. |
| CTATTATGTGAAGATTACGTGCTATATATACTTTTCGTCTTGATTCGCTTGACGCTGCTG | 557 a.u. |
| GAAGTCTACATCTTGCATGTGACATAAGTAAGTTAGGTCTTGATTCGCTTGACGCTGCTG | 2920 a.u. |

Further values, each from its own experiment
| Molecule | target | assay | system | setting | how to read | endpoint | value |
| --- | --- | --- | --- | --- | --- | --- | --- |
| PhoQ, residues 284 288 289 292 302 303 SLANIV | PhoP, residues 12 14 15 18 19 STWGI (Escherichia coli, UniProt P23836) | Sort-seq, refers to: YFP reporter | E. coli | PhoQ-PhoP variant library, together with: 10 µM Mg2+ | reference: high Mg2+ state, higher = stronger signaling | fold induction | 7.27 |

For quick reference, copied from above (set 3):
| Strand | fluorescence intensity |
| --- | --- |
| GAACATTTTATCCATTATCTGATGCATTTCCCTTAGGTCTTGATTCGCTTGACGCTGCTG | 513 a.u. |
| GAAGTCTACATCTTGCATGTGACATAAGTAAGTTAGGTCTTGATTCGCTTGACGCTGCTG | 2920 a.u. |
